Published values of several laboratories.
Compare with care: the assays were run in different laboratories. Numbers after ± are the reported error.
rep R3428I 3C-like proteinase: Replicase polyprotein 1ab, 3C-like proteinase (rep, Severe acute respiratory syndrome-related coronavirus, UniProt P0C6X7, R3428I)

Chains of the proteins cited; added tags and fusions are not shown. Residues count along the entry.
UniProt P04757, 26-499 limits assumed: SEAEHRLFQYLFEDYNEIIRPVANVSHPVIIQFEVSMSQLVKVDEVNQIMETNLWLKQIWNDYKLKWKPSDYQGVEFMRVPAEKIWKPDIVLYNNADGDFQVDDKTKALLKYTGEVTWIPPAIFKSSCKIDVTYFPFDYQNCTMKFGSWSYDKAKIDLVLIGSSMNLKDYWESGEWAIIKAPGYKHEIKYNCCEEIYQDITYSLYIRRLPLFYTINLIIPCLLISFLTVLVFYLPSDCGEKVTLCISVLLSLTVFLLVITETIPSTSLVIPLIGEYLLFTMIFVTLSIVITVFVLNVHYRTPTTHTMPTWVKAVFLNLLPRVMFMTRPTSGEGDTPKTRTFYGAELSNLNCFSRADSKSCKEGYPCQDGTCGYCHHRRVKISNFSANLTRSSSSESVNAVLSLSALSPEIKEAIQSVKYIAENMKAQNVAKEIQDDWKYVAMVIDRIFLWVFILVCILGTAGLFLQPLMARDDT
UniProt P04757, whole entry, looked up: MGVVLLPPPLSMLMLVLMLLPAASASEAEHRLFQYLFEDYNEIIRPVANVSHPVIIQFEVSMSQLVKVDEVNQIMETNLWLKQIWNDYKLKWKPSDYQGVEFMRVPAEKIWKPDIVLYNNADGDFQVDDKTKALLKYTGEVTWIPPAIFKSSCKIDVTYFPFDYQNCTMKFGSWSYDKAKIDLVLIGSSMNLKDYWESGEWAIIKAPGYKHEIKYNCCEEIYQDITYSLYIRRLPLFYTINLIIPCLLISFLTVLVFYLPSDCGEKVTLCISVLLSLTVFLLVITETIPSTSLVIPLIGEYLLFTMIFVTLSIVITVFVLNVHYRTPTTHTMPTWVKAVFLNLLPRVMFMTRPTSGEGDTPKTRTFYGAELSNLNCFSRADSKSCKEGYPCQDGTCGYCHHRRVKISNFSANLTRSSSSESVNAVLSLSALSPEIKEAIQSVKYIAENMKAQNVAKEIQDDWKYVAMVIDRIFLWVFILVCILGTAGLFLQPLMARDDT
UniProt P12390, 25-500 limits assumed: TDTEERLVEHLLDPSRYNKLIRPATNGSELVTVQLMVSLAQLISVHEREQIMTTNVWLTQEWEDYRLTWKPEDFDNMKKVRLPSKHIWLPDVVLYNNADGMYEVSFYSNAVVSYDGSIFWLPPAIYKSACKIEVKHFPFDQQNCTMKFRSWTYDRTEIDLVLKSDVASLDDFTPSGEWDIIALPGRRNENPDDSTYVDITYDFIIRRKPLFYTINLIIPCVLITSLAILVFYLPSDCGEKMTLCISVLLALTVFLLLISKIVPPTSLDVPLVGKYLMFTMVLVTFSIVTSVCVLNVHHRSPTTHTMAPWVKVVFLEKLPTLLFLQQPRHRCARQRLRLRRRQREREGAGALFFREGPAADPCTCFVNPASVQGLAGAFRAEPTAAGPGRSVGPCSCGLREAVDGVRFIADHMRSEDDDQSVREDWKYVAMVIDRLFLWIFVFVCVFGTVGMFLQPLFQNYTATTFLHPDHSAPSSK
UniProt P12390, whole entry, looked up: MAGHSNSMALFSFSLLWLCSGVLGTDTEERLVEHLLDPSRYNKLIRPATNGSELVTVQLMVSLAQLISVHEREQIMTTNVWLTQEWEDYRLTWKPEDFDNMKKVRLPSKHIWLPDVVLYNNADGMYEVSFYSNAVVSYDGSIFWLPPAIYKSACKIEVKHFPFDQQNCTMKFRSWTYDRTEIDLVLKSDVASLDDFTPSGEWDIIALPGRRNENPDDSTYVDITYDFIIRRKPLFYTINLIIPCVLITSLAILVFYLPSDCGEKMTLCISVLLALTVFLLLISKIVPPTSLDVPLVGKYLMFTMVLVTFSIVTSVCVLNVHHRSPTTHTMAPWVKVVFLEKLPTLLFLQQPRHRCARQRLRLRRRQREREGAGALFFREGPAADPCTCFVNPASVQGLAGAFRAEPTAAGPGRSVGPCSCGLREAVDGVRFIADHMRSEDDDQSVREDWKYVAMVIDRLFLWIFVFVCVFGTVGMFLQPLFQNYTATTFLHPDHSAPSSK
UniProt P43143, whole entry M241L/F253L/V303I/V320I/I327V/A333T/K339T, looked up: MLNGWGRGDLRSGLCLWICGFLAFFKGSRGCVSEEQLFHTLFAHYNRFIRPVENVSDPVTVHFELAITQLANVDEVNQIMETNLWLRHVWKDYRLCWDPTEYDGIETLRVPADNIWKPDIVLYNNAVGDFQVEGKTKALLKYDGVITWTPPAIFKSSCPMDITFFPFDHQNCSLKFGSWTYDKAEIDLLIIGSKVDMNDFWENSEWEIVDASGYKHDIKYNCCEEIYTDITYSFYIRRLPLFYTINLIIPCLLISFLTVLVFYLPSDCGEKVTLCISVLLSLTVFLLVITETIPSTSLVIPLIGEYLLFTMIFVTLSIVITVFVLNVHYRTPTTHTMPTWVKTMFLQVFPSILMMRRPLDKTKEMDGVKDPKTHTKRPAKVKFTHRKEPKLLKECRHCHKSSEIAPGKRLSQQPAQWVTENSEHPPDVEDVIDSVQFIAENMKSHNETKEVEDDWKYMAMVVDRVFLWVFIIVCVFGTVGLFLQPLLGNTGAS

SMILES	target	assay	test system	setting	IC50 [µM]
CC(C)C[C@H](NC(=O)[C@@H](NC(=O)COc1ccccc1)C(C)C)C(=O)N[C@@H](C[C@@H]1CCNC1=O)C(=O)c1nc2ccccc2s1	rep R3428I 3C-like proteinase	enzyme activity, inhibitor, HPLC	–	60 min, 37 °C, added: substrate 111 µM	2.3
CNC(=O)ON=CC(C)(C)SC	Acetylcholinesterase (Cavia porcellus, UniProt D3YE96)	Ellman	–	–	67
CC[C@H](C)[C@@H]1NC(=O)[C@H](CCC(=O)O)NC(=O)[C@@H]2CCCN2C(=O)[C@H](Cc2c[nH]cn2)NC(=O)[C@H](CCCCC(=O)O)NC(=O)[C@H](CC(C)C)NC(=O)[C@H](Cc2c[nH]cn2)NC(=O)[C@@H]2CSSC[C@H](NC(=O)CN)C(=O)N[C@@H](CSSC[C@@H](C(N)=O)NC1=O)C(=O)N[C@@H](CO)C(=O)N[C@@H](Cc1c[nH]cn1)C(=O)N1CCC[C@H]1C(=O)N[C@@H](C)C(=O)N2	Neuronal acetylcholine receptor; alpha3/beta2 (Rattus norvegicus, UniProt P04757+P12390)	ion current, antagonist, two-electrode voltage clamp	Xenopus laevis oocytes	added: 100 µM acetylcholine	0.00057
COc1cc(/C=C/C(=O)N[C@H](COC(=O)c2ccccc2)C(=O)NC2CCCCC2)cc(OC)c1OC	rep R3428I 3C-like proteinase	enzyme activity, inhibitor, HPLC substrate depletion	–	pH 4.0	65
CSCC[C@H](NC(=O)[C@H](CC(=O)O)NC(=O)[C@H](CC(=O)O)NC(=O)[C@@H](N)CC(=O)O)C(=O)NCC(=O)N[C@@H](Cc1ccccc1)C(=O)NCC(=O)N[C@@H](CC(C)C)C(=O)N[C@@H](Cc1ccccc1)C(=O)N[C@@H](CC(=O)O)C(=O)O	Shiga-like toxin 2 subunit A, A1 fragment (UniProt P09385)	ribosome depurination	yeast ribosomes	pH 7.4	28 ± 4
CC(=O)Nc1ccc(/C=N/Nc2ccc(C(=O)c3c(C)cc4ccccn34)cc2[N+](=O)[O-])cc1	Botulinum neurotoxin type A, light chain (Clostridium botulinum, UniProt P0DPI0)	inhibitor, FRET, YFP-SNAP25-CFP substrate	–	no reducing agent	> 200
COc1ccccc1OCC(=O)N[C@H](C(=O)N[C@@H](CC(C)C)C(=O)N[C@@H](C[C@@H]1CCNC1=O)C(=O)c1nc2ccccc2s1)C(C)C	rep R3428I 3C-like proteinase	enzyme activity, inhibitor, HPLC	–	60 min, 37 °C, added: substrate 111 µM	1.9
O=C(/C=C/c1ccccc1)N[C@@H](COC(=O)c1ccncc1)C(=O)NC1CCCCC1	rep R3428I 3C-like proteinase	enzyme activity, inhibitor, HPLC substrate depletion	–	pH 4.0	175
CC(C)C[C@@H]1NC(=O)[C@H](CCC(=O)O)NC(=O)[C@@H]2CCCN2C(=O)[C@H](Cc2c[nH]cn2)NC(=O)[C@H](CCCC(=O)O)NC(=O)[C@H](CC(C)C)NC(=O)[C@H](Cc2c[nH]cn2)NC(=O)[C@@H]2CSSC[C@H](NC(=O)CN)C(=O)N[C@@H](CSSC[C@@H](C(N)=O)NC1=O)C(=O)N[C@@H](CO)C(=O)N[C@@H](Cc1c[nH]cn1)C(=O)N1CCC[C@H]1C(=O)N[C@@H](C)C(=O)N2	Chrna3/Chrnb2/Chrna6, with beta3 subunit (Rattus norvegicus, UniProt P04757+P12390+P43143)	ion current, antagonist, two-electrode voltage clamp	Xenopus laevis oocytes	added: 100 µM acetylcholine	0.155
O=C(/C=C/c1ccccc1)N[C@H](COC(=O)c1ccccc1)C(=O)NCC1CCCCC1	rep R3428I 3C-like proteinase	enzyme activity, inhibitor, HPLC substrate depletion	–	pH 4.0	430
Nc1nc2nc(C(=O)NCc3ccc(F)cc3)cnc2c(=O)[nH]1	Ricin, A chain (Ricinus communis, UniProt P02879)	recovery of translation, inhibitor, in vitro luciferase translation	rabbit reticulocyte lysate	–	570

Repeated from above:
SMILES	target	assay	test system	setting	IC50 [µM]
COc1ccccc1OCC(=O)N[C@H](C(=O)N[C@@H](CC(C)C)C(=O)N[C@@H](C[C@@H]1CCNC1=O)C(=O)c1nc2ccccc2s1)C(C)C	rep R3428I 3C-like proteinase	enzyme activity, inhibitor, HPLC	–	60 min, 37 °C, added: substrate 111 µM	1.9
